Results pooled from the literature.
A part holds a random share of what one study measured. Substitutions count along the parent as printed.

Set 1 — target: CCNE1, cyclin fold, Cln2 fusion (human); technique: yeast growth competition, sequencing; medium: yeast; setting: strong parent motif; relative to: not given; reading: higher = stronger binding; quantity: normalised enrichment score
Parent: E2F1 docking peptide (human); PPVKRRLDLETDH; partner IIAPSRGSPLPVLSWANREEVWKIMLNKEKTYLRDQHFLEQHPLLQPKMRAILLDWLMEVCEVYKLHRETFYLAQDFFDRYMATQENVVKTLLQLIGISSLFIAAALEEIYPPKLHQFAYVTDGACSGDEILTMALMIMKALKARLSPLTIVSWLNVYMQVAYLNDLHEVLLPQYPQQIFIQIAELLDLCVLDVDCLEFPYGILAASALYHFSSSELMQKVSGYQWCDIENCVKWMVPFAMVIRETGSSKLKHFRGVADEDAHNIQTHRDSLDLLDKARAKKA
PPVKRRGDLETDH [L7G]: -0.704
PPVKRDLDLETDH [R6D]: -1.16
PPVKRRLDLCTDH [E10C]: 1.82
PPVKRRLDLEPDH [T11P]: 2.92
PPVKVRLDLETDH [R5V]: -0.619
PPVKRRLRLETDH [D8R]: 0.71
PPVKRRLDLETDI [H13I]: 2.5

Set 2 — technique: RNA Bind-n-Seq; form: RNA; medium: in vitro; concentration: not given; setting: RNA with constant flanks, ends assumed; relative to: input RNA pool; reading: higher = stronger binding; quantity: bound/input enrichment
Target: RING finger protein unkempt homolog, zinc fingers 1-6, GST-SBP tag (UNK, Homo sapiens, UniProt Q9C0B0, residues 30-357)
Target sequence (chain): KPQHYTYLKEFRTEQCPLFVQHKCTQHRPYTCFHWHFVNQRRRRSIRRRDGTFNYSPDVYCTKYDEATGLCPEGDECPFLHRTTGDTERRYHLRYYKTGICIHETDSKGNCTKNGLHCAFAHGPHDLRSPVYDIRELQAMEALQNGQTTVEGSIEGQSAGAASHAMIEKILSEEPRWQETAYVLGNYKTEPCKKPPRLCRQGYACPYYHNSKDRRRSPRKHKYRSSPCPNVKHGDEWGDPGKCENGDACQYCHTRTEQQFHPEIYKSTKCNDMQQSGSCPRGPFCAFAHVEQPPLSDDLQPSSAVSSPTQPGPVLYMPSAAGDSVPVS
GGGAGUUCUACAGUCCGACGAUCAACAGUGAUAUAUGCAAGAAACCCUGUAGCGUAGCGCCUCAUGAUAGUCAGCUAAUUUCCCGUACUAUCCUAAUUAAUGAAAUGAAUGGAGUUGGAGAAAAAUUAUCAGCCAAGGAGAACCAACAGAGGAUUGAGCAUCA: 0.774 ratio
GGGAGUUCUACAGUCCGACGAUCGAUAUUUGCAAUUAGUUGUCUUAACUAAUGGUUUUUUUCACUUGCAGGAUUAUUUCCUAUUCCGAGAUGGUGACAUUCUUGGAAAGUACGUAGACUGAAAUAAGUCACUAUUGAAAUGGCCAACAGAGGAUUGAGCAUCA: 0.188 ratio
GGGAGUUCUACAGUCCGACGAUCGAGUACAUCAAACUCAACCAGCAAAAAACAGCAGAAGAAGAAAAUCCAGAACAUGCCGAAAUUCAGAAGAUGAUGGAUUCCCUCUUCUUAAAAUUGGAUGCCCUCUCAAACUUCCACUUUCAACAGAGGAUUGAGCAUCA: 0.18 ratio
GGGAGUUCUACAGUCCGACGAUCGGCGCCUUUGCUUUGCCCAUUCUAAACGCACUGCUGGAGACCCCGCAGCGUUUGUUUGCCCCCGUUCUUACCCCGACUCGGGAGCUGGCCUUUCAGAUCUCAGAGCAGUUUGAAGCCCUGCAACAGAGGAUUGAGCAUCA: 0.155 ratio
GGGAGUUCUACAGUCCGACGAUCACGAGCAGGCCCGGACCUCGAGACCUAAAGCUGGGGAUCCCAAGUCCGUUCUACAGCCCGAGAUCACUAUGUGGCCAUGGAAUCCUCGGGCGAUCCCUGUGGACGCCACCUCACUCCGGGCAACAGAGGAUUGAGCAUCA: 0.0483 ratio
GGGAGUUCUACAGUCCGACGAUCACCCGAUUCUGUCUUAUCUGUAACUAUGUCAGUCGAAUAAUUGAACCCCUGACCUCCCGAUGUUCAAAAUUCCGCUUCAAGCCUCUGUCAGAUAAAAUUCAACAGCAGCGAUUACUAGACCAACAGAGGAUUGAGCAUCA: 0.864 ratio
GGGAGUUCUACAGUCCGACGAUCAUUGAAAUAUUCACUGACCUCAGCAGCCGAUUCAGCAAAAGUCAGCUGGAUAUUAUAAUUCACCGCUUGAAGAAAUGUGACAUCUCCCUGCAAUUCUUCUUGCCUUUCUCACUUGGCAAGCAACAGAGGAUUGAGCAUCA: 0.086 ratio
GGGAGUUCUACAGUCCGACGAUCAUGAACUUUCAGGCAACACUGUUAUUAAAUGACCCAGACAGACCUGUCCUUAUAUAAUUGCCGCUUUUCAGCACAAGGAUCCUAAAAGAUGGCAGCACCCACUUCUAAAAUCAUACUUGACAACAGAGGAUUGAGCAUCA: 0.208 ratio
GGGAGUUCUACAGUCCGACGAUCAUCAAGGGUGAAAUCCCAUUCUGCUAGCAAAAUGCAGUAUUCACACCACUGUGAGCACCUUUCCGAGAGACUGAAUAAGCAACGGGAAGCGGGAUUUCUUUGCGACUGUACCGUAGUGAUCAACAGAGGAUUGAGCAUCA: 0.229 ratio

Set 3 — technique: aptamer microarray, sandwich; form: DNA with 2'F-ANA; medium: in vitro; concentration: 200 nM; with: Cy3 exosite-II aptamer, 400 nM; reading: higher = stronger binding; quantity: mean fluorescence intensity; strand: GGTTGGTGTGGTTGG
Target: Prothrombin, mature alpha-thrombin (F2, Homo sapiens, UniProt P00734)
Setting: whole 15-mer aptamer, many near background
2'F-ANA at 7 9 11 12 15: 615 a.u.
2'F-ANA at 1 2 3 4 5 6 8 9 12 15: 128 a.u.
2'F-ANA at 2 4 6 7 8 9 10 12 13 14: 101 a.u.
2'F-ANA at 2 5 6 8 10 12 13 14 15: 47.9 a.u.
2'F-ANA at 1 4 5 6 7 10 11 13 15: 47.3 a.u.
2'F-ANA at 1 4 6 8 10 13 14 15: 49.7 a.u.
2'F-ANA at 4 5 7 9 11 12 13 14: 47.4 a.u.
2'F-ANA at 1 3 5 7 9 13 14 15: 48.8 a.u.

Set 4 — technique: Sort-seq; measured: YFP reporter; medium: E. coli; setting: PhoQ-PhoP variant library; with: 10 µM Mg2+; relative to: high Mg2+ state; reading: higher = stronger signaling; quantity: fold induction
Molecule: PhoQ, residues 284 288 289 292 302 303 AGCYAI
PhoP, residues 12 14 15 18 19 LFHKL (Escherichia coli, UniProt P23836): 6.73
PhoP, residues 12 14 15 18 19 QQAYL (Escherichia coli, UniProt P23836): 2.27
PhoP, residues 12 14 15 18 19 GMGLL (Escherichia coli, UniProt P23836): 3.78

For quick reference, copied from above (set 3):
2'F-ANA at 2 5 6 8 10 12 13 14 15: 47.9 a.u.
2'F-ANA at 1 4 5 6 7 10 11 13 15: 47.3 a.u.
2'F-ANA at 1 4 6 8 10 13 14 15: 49.7 a.u.
2'F-ANA at 4 5 7 9 11 12 13 14: 47.4 a.u.
